Assay results from different studies.
Numbers after ± are the reported error.
Organism: SARS-CoV-2

For `O=C(NC1CCN(c2ncnc3[nH]cnc23)CC1)c1cccc(NS(=O)(=O)c2ccc(Cl)cc2)c1`, the relative infection was 26.1% (Wuhan-Hu-1; 22.22 µM; relative to: untreated infected cells).
With `O=C(O)C(O)=CC(=O)c1ccc2cc(O)c(O)cc2c1` the EC50 was greater than 50000 nM (viral replication; VeroE6-TMPRSS2).
With `CN(C)CCCCNC(=O)C[C@H](Cc1ccc(F)cc1)NC(=O)[C@@H](Cc1ccc(Cl)cc1Cl)NC(=O)[C@H](O)Cc1ccccc1C#N` the EC50 was 700 nM (viral replication; USA-WA1/2020).
`O=C(O)C(O)=CC(=O)c1cc(Oc2ccccc2)cc(Oc2ccccc2)c1` has an inhibition of 70% (viral replication; VeroE6; 50 µM).
With `O=C(NC1CCN(c2ncnc3[nH]cnc23)CC1)c1cccc(NS(=O)(=O)c2ccc([N+](=O)[O-])cc2)c1` the relative infection was 63.9% (Wuhan-Hu-1; 0.2743 µM; relative to: untreated infected cells).
For `CC[C@H](C)[C@H](NC(=O)[C@H](C)NC(=O)[C@H](CCC(=O)O)NC(=O)[C@H](CCC(=O)O)NC(=O)[C@H](CC(C)C)NC(=O)[C@H](CCCCN)NC(=O)[C@H](CCCCN)NC(=O)[C@H](CCSC)NC(=O)[C@H](CCC(=O)O)NC(=O)[C@H](Cc1ccc(O)cc1)NC(=O)[C@H](CCC(=O)O)NC(=O)[C@H](CC(C)C)NC(=O)[C@H](CC(=O)O)NC(=O)[C@H](CC(C)C)NC(=O)[C@H](Cc1ccccc1)NC(=O)[C@@H](NC(=O)[C@@H](NC(=O)[C@H](CC(N)=O)NC(=O)[C@@H](NC(=O)[C@H](CCC(N)=O)NC(=O)[C@H](CC(=O)O)NC(=O)[C@H](CC(C)C)NC(=O)[C@H](CO)NC(=O)CNC(=O)[C@H](CC(C)C)NC(=O)[C@H](CC(=O)O)NC(=O)[C@@H](N)C(C)C)[C@@H](C)CC)C(C)C)[C@@H](C)O)C(=O)N[C@@H](CCCCN)C(=O)N[C@@H](CCCCN)C(=O)N[C@@H](CC(C)C)C(=O)N[C@@H](CCC(=O)O)C(=O)N[C@@H](CCC(=O)O)C(=O)N[C@@H](CO)C(=O)N[C@@H](Cc1ccc(O)cc1)C(=O)N[C@H](C(=O)N[C@@H](CC(=O)O)C(=O)N[C@@H](CC(C)C)C(=O)N[C@@H](CCCCN)C(=O)N[C@@H](CCC(=O)O)C(=O)N[C@@H](CC(C)C)C(=O)O)[C@@H](C)CC`, the IC50 was 416 nM (pseudovirus infection, inhibitor, luciferase; Caco-2, D614G pseudovirus; 24 h).
`CN(C)C(=O)CCCNC(=O)C[C@H](Cc1ccc(F)cc1)NC(=O)[C@@H](Cc1ccc(Cl)cc1Cl)NC(=O)[C@H](N)Cc1ccccc1C#N` gave an EC50 of 3500 nM (viral replication; USA-WA1/2020).
`CC[C@H](C)[C@H](NC(=O)[C@H](C)NC(=O)[C@H](CCC(=O)O)NC(=O)[C@H](CCC(=O)O)NC(=O)[C@H](CC(C)C)NC(=O)[C@H](CCCCN)NC(=O)[C@H](CCCCN)NC(=O)[C@H](CCSC)NC(=O)[C@H](CCC(=O)O)NC(=O)[C@H](Cc1ccc(O)cc1)NC(=O)[C@H](CCC(=O)O)NC(=O)[C@H](CC(C)C)NC(=O)[C@H](CC(=O)O)NC(=O)[C@H](CC(C)C)NC(=O)[C@H](Cc1ccccc1)NC(=O)[C@H](Cc1ccc(O)cc1)NC(=O)[C@@H](NC(=O)[C@H](CC(N)=O)NC(=O)[C@@H](NC(=O)[C@H](CCC(N)=O)NC(=O)[C@H](CC(=O)O)NC(=O)[C@H](CC(C)C)NC(=O)[C@@H](N)CO)[C@@H](C)CC)C(C)C)C(=O)N[C@@H](CCCCN)C(=O)N[C@@H](CCCCN)C(=O)N[C@@H](CC(C)C)C(=O)N[C@@H](CCC(=O)O)C(=O)N[C@@H](CCC(=O)O)C(=O)N[C@@H](C)C(=O)N[C@@H](Cc1ccc(O)cc1)C(=O)N[C@H](C(=O)N[C@@H](CC(=O)O)C(=O)N[C@@H](CC(C)C)C(=O)N[C@@H](CCCCN)C(=O)N[C@@H](CCC(=O)O)C(=O)N[C@@H](CC(C)C)C(=O)O)[C@@H](C)CC` gave an IC50 of 282 nM (pseudovirus infection, inhibitor, luciferase; Caco-2, D614G pseudovirus; 24 h, dual mutations).
With `Cc1ccccc1S(=O)(=O)Nc1cccc(C(=O)NC2CCN(c3ncnc4[nH]cnc34)CC2)c1` the IC50 was 2410 nM (viral infection; Wuhan-Hu-1).
For `CC[C@H](C)[C@H](NC(=O)[C@H](C)NC(=O)[C@H](CCC(=O)O)NC(=O)[C@H](CCC(=O)O)NC(=O)[C@H](CC(C)C)NC(=O)[C@H](CCCCN)NC(=O)[C@H](CCCCN)NC(=O)[C@H](CCSC)NC(=O)[C@H](CCC(=O)O)NC(=O)[C@H](Cc1ccc(O)cc1)NC(=O)[C@H](CCC(=O)O)NC(=O)[C@H](CC(C)C)NC(=O)[C@H](CC(=O)O)NC(=O)[C@H](CC(C)C)NC(=O)[C@H](Cc1ccccc1)NC(=O)[C@H](Cc1ccccc1)NC(=O)[C@@H](NC(=O)[C@H](CC(N)=O)NC(=O)[C@@H](NC(=O)[C@H](CCC(N)=O)NC(=O)[C@H](CC(=O)O)NC(=O)[C@H](CC(C)C)NC(=O)[C@@H](N)CO)[C@@H](C)CC)C(C)C)C(=O)N[C@@H](CCCCN)C(=O)N[C@@H](CCCCN)C(=O)N[C@@H](CC(C)C)C(=O)N[C@@H](CCC(=O)O)C(=O)N[C@@H](CCC(=O)O)C(=O)N[C@@H](CO)C(=O)N[C@@H](Cc1ccc(O)cc1)C(=O)N[C@H](C(=O)N[C@@H](CC(=O)O)C(=O)N[C@@H](CC(C)C)C(=O)N[C@@H](CCCCN)C(=O)N[C@@H](CCC(=O)O)C(=O)N[C@@H](CC(C)C)C(=O)O)[C@@H](C)CC`, the IC50 was 287 nM (pseudovirus infection, inhibitor, luciferase; Caco-2, D614G pseudovirus; 24 h).
For `COc1ccc(S(=O)(=O)Nc2cccc(C(=O)NC3CCN(c4ncnc5[nH]cnc45)CC3)c2)cc1`, the IC50 was 1760 nM (viral infection; Wuhan-Hu-1).
With `O=C(O)C(O)=CC(=O)C1(Cc2ccc(Cl)cc2)CCN(C(=O)C=Cc2ccccc2)CC1` the inhibition was 15% (viral replication; VeroE6; 50 µM).
`CC[C@H](C)[C@H](NC(=O)[C@H](C)NC(=O)[C@H](CCC(=O)O)NC(=O)[C@H](CCC(=O)O)NC(=O)[C@H](CC(C)C)NC(=O)[C@H](CCCCN)NC(=O)[C@H](CCCCN)NC(=O)[C@H](CCSC)NC(=O)[C@H](CCC(=O)O)NC(=O)[C@H](Cc1ccc(O)cc1)NC(=O)[C@H](CCC(=O)O)NC(=O)[C@H](CC(C)C)NC(=O)[C@H](CC(=O)O)NC(=O)[C@H](CC(C)C)NC(=O)[C@H](Cc1ccccc1)NC(=O)[C@H](Cc1ccc(O)cc1)NC(=O)[C@@H](NC(=O)[C@H](CC(N)=O)NC(=O)[C@@H](NC(=O)[C@H](CCC(N)=O)NC(=O)[C@H](CC(=O)O)NC(=O)[C@H](CC(C)C)NC(=O)[C@@H](N)CO)[C@@H](C)CC)C(C)C)C(=O)N[C@@H](CCCCN)C(=O)N[C@@H](CCCCN)C(=O)N[C@@H](CC(C)C)C(=O)N[C@@H](CCC(=O)O)C(=O)N[C@@H](CCC(=O)O)C(=O)N[C@@H](CO)C(=O)N[C@@H](Cc1ccc(O)cc1)C(=O)N[C@H](C(=O)N[C@@H](CC(=O)O)C(=O)N[C@@H](CC(C)C)C(=O)N[C@@H](CCCCN)C(=O)N[C@@H](CCC(=O)O)C(=O)N[C@@H](CC(C)C)C(=O)O)[C@@H](C)CC` gave an IC50 of 441 nM (pseudovirus infection, inhibitor, luciferase; Caco-2, D614G pseudovirus; 24 h).
With `Nc1ccc([As]2SCC(C(=O)O)CS2)cc1` (stereo not shown) the IC50 was roughly 10000 nM (pseudovirus entry, spike-pseudotyped lentivector; A549 expressing ACE2 and TMPRSS2; 1 h pretreatment).
The inhibition of `O=C(O)C(O)=CC(=O)C1(Cc2ccc(Cl)cc2)CCN(C(=O)OCc2ccccc2)CC1` is reported as 70% (viral replication; VeroE6; 50 µM).
With `CC[C@H](C)[C@H](NC(=O)[C@H](C)NC(=O)[C@H](CCC(=O)O)NC(=O)[C@H](CCC(=O)O)NC(=O)[C@H](CC(C)C)NC(=O)[C@H](CCCCN)NC(=O)[C@H](CCCCN)NC(=O)[C@H](CCSC)NC(=O)[C@H](CCC(=O)O)NC(=O)[C@H](Cc1ccc(O)cc1)NC(=O)[C@H](CCC(=O)O)NC(=O)[C@H](CC(C)C)NC(=O)[C@H](CC(=O)O)NC(=O)[C@H](CC(C)C)NC(=O)[C@H](Cc1ccccc1)NC(=O)[C@@H](NC(=O)[C@@H](NC(=O)[C@H](CC(N)=O)NC(=O)[C@@H](NC(=O)[C@H](CCC(N)=O)NC(=O)[C@H](CC(=O)O)NC(=O)[C@H](CC(C)C)NC(=O)[C@@H](N)CO)[C@@H](C)CC)C(C)C)[C@@H](C)O)C(=O)N[C@@H](CCCCN)C(=O)N[C@@H](CCCCN)C(=O)N[C@@H](CC(C)C)C(=O)N[C@@H](CCC(=O)O)C(=O)N[C@@H](CCC(=O)O)C(=O)N[C@@H](CO)C(=O)N[C@@H](Cc1ccc(O)cc1)C(=O)N[C@H](C(=O)N[C@@H](CC(=O)O)C(=O)N[C@@H](CC(C)C)C(=O)N[C@@H](CCCCN)C(=O)N[C@@H](CCC(=O)O)C(=O)N[C@@H](CC(C)C)C(=O)O)[C@@H](C)CC` the IC50 was 645 nM (pseudovirus infection, inhibitor, luciferase; Caco-2, D614G pseudovirus; 24 h).
`NS(=O)(=O)c1ccc(-c2cn(-c3ccc(C(=O)C=C(O)C(=O)O)cc3)nn2)cc1` gave an inhibition of 15% (viral replication; VeroE6; 50 µM).
`N#CCNC(=O)C[C@H](Cc1ccc(F)cc1)NC(=O)[C@@H](Cc1ccc(Cl)cc1Cl)NC(=O)[C@H](N)Cc1ccccc1C#N` has an EC50 of greater than 10000 nM (viral replication; USA-WA1/2020).
`O=C(NCc1ccc(F)cc1)C1C(=O)N(O)C(=O)c2cc([N+](=O)[O-])ccc21` (stereo not shown) has an EC50 of greater than 50000 nM (viral replication; VeroE6-TMPRSS2).
The relative infection of `Cc1ccc(S(=O)(=O)Nc2cccc(C(=O)NC3CCN(c4ncnc5[nH]cnc45)CC3)c2)cc1Cl` is reported as 66.4% (Wuhan-Hu-1; 0.2743 µM; relative to: untreated infected cells).
With `O=C(O)C(O)=CC(=O)C1(Cc2ccc(Cl)cc2)CCN(Cc2ccc3ccccc3c2)CC1` the EC50 was 38000 ± 3000 nM (viral replication; VeroE6-TMPRSS2).
The IC50 of `CC[C@H](C)[C@H](NC(=O)[C@H](C)NC(=O)[C@H](CCC(=O)O)NC(=O)[C@H](CCC(=O)O)NC(=O)[C@H](CC(C)C)NC(=O)[C@H](CCCCN)NC(=O)[C@H](CCCCN)NC(=O)[C@H](CCSC)NC(=O)[C@H](CCC(=O)O)NC(=O)[C@H](Cc1ccc(O)cc1)NC(=O)[C@H](CCC(=O)O)NC(=O)[C@H](CC(C)C)NC(=O)[C@H](CC(=O)O)NC(=O)[C@H](CC(C)C)NC(=O)[C@H](Cc1ccccc1)NC(=O)[C@H](Cc1ccccc1)NC(=O)[C@@H](NC(=O)[C@H](CC(N)=O)NC(=O)[C@@H](NC(=O)[C@H](CCC(N)=O)NC(=O)[C@H](CC(=O)O)NC(=O)[C@H](CC(C)C)NC(=O)[C@@H](N)CO)[C@@H](C)CC)C(C)C)C(=O)N[C@@H](CCCCN)C(=O)N[C@@H](CCCCN)C(=O)N[C@@H](CC(C)C)C(=O)N[C@@H](CCC(=O)O)C(=O)N[C@@H](CCC(=O)O)C(=O)N[C@H](C(=O)N[C@@H](Cc1ccc(O)cc1)C(=O)N[C@H](C(=O)N[C@@H](CC(=O)O)C(=O)N[C@@H](CC(C)C)C(=O)N[C@@H](CCCCN)C(=O)N[C@@H](CCC(=O)O)C(=O)N[C@@H](CC(C)C)C(=O)O)[C@@H](C)CC)[C@@H](C)O` is reported as 185 nM (pseudovirus infection, inhibitor, luciferase; Caco-2, D614G pseudovirus; 24 h, dual mutations).

Some of these lines once more:
`CC[C@H](C)[C@H](NC(=O)[C@H](C)NC(=O)[C@H](CCC(=O)O)NC(=O)[C@H](CCC(=O)O)NC(=O)[C@H](CC(C)C)NC(=O)[C@H](CCCCN)NC(=O)[C@H](CCCCN)NC(=O)[C@H](CCSC)NC(=O)[C@H](CCC(=O)O)NC(=O)[C@H](Cc1ccc(O)cc1)NC(=O)[C@H](CCC(=O)O)NC(=O)[C@H](CC(C)C)NC(=O)[C@H](CC(=O)O)NC(=O)[C@H](CC(C)C)NC(=O)[C@H](Cc1ccccc1)NC(=O)[C@H](Cc1ccc(O)cc1)NC(=O)[C@@H](NC(=O)[C@H](CC(N)=O)NC(=O)[C@@H](NC(=O)[C@H](CCC(N)=O)NC(=O)[C@H](CC(=O)O)NC(=O)[C@H](CC(C)C)NC(=O)[C@@H](N)CO)[C@@H](C)CC)C(C)C)C(=O)N[C@@H](CCCCN)C(=O)N[C@@H](CCCCN)C(=O)N[C@@H](CC(C)C)C(=O)N[C@@H](CCC(=O)O)C(=O)N[C@@H](CCC(=O)O)C(=O)N[C@@H](CO)C(=O)N[C@@H](Cc1ccc(O)cc1)C(=O)N[C@H](C(=O)N[C@@H](CC(=O)O)C(=O)N[C@@H](CC(C)C)C(=O)N[C@@H](CCCCN)C(=O)N[C@@H](CCC(=O)O)C(=O)N[C@@H](CC(C)C)C(=O)O)[C@@H](C)CC` gave an IC50 of 441 nM (pseudovirus infection, inhibitor, luciferase; Caco-2, D614G pseudovirus; 24 h).
With `Nc1ccc([As]2SCC(C(=O)O)CS2)cc1` (stereo not shown) the IC50 was roughly 10000 nM (pseudovirus entry, spike-pseudotyped lentivector; A549 expressing ACE2 and TMPRSS2; 1 h pretreatment).
The inhibition of `O=C(O)C(O)=CC(=O)C1(Cc2ccc(Cl)cc2)CCN(C(=O)OCc2ccccc2)CC1` is reported as 70% (viral replication; VeroE6; 50 µM).
